Published values gathered from unrelated publications.
A part holds a random share of what one study measured.
Chain of UniProt P10721 (whole entry, unmodified, looked up): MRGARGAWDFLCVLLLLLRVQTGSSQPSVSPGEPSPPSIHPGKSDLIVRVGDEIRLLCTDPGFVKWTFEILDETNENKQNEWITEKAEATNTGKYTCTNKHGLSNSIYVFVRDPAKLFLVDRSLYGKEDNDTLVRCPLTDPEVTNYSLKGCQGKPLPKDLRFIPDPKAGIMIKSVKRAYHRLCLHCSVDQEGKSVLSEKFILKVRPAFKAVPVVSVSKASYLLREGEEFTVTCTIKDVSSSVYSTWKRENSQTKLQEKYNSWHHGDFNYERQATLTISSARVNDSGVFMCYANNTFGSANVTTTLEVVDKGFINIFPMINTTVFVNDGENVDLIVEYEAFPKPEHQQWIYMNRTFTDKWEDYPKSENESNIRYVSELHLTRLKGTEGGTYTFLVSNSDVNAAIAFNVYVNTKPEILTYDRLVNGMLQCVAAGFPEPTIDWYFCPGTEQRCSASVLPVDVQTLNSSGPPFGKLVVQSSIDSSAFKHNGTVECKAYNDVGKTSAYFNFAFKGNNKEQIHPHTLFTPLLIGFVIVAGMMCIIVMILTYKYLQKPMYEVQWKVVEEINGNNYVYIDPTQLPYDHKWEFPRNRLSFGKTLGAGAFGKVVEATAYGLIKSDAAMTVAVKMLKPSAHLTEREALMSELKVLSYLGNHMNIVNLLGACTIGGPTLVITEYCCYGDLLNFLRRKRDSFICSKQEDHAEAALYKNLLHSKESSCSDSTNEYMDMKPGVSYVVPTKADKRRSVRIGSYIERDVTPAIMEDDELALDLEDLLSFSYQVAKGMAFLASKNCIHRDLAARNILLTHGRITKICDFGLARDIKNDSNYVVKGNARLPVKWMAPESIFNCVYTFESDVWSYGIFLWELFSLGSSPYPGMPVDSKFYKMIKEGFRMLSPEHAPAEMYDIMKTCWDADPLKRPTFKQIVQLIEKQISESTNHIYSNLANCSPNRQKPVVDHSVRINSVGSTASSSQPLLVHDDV
Chain of UniProt Q2M2I8 (whole entry, looked up): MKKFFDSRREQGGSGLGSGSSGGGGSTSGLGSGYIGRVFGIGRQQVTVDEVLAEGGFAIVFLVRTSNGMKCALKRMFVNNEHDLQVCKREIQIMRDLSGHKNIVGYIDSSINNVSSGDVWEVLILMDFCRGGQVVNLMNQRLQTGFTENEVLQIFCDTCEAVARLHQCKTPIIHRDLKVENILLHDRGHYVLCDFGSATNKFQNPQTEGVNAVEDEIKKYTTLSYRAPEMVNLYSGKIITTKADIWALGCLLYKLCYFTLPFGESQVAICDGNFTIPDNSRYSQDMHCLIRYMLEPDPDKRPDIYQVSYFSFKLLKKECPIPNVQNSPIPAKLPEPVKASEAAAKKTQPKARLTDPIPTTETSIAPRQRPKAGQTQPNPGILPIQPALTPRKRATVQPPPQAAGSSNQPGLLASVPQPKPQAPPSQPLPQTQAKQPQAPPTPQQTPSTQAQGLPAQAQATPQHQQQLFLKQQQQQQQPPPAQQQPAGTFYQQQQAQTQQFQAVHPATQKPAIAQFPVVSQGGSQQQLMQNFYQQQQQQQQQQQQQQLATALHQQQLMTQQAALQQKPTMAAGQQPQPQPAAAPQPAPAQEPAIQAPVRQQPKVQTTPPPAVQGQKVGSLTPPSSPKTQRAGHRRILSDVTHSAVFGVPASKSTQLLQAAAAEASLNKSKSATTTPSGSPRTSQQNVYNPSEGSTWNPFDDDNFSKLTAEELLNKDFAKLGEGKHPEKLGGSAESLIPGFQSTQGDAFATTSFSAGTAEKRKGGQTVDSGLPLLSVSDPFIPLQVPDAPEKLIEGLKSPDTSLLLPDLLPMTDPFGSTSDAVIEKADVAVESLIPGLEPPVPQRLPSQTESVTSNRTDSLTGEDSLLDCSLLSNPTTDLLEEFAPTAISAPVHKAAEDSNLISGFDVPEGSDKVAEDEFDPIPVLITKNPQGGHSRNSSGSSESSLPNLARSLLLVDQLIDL
Chain of UniProt Q9UKE5 (whole entry, looked up): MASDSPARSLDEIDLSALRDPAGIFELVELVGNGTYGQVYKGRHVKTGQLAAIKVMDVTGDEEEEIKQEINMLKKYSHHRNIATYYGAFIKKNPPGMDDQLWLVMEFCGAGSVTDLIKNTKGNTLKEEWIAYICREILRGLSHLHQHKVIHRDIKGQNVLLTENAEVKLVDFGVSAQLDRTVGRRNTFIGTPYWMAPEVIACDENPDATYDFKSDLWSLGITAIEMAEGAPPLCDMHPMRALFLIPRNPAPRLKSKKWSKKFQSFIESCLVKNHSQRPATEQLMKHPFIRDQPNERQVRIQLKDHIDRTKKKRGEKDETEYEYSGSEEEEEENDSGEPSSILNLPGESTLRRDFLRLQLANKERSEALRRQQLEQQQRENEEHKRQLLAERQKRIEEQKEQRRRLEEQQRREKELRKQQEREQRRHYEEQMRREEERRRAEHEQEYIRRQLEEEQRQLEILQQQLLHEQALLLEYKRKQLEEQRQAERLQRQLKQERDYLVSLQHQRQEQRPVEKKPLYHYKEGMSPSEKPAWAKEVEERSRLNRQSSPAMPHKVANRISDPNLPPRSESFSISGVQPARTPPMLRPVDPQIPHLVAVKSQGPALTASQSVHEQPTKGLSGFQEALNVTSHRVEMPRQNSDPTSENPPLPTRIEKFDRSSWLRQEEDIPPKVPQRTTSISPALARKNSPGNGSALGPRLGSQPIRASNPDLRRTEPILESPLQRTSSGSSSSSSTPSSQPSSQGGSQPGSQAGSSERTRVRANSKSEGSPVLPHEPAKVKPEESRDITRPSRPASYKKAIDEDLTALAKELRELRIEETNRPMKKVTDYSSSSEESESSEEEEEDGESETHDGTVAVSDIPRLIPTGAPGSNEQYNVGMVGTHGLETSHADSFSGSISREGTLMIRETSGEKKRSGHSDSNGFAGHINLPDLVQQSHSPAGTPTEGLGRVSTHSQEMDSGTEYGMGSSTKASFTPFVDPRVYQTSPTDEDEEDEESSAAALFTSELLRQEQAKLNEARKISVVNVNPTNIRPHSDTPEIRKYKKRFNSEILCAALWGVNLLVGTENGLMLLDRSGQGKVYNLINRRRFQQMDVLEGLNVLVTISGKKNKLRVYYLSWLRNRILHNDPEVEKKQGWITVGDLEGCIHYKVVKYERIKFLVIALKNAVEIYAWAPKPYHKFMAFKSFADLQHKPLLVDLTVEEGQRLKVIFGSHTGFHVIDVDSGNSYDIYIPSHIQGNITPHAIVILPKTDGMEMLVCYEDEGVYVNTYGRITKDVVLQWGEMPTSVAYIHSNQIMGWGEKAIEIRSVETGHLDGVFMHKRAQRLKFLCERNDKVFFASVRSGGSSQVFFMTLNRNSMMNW
Chain of UniProt P49759 (whole entry, looked up): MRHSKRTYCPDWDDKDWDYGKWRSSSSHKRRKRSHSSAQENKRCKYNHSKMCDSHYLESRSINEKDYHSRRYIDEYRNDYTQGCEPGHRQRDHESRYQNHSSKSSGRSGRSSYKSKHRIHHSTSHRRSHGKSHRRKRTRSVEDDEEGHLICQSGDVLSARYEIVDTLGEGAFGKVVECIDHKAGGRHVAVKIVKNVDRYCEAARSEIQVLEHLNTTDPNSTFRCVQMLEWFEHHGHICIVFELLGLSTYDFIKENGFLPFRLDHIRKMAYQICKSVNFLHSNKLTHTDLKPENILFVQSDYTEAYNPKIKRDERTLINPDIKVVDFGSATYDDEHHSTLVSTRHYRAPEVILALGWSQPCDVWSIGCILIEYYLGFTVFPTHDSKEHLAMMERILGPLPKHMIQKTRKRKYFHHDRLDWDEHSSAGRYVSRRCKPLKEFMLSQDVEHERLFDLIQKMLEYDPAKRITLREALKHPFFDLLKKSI

Set 1
Target: Tyrosine-protein kinase Fer (FER, Homo sapiens, UniProt P16591)
Chain of UniProt P16591 (whole entry, looked up): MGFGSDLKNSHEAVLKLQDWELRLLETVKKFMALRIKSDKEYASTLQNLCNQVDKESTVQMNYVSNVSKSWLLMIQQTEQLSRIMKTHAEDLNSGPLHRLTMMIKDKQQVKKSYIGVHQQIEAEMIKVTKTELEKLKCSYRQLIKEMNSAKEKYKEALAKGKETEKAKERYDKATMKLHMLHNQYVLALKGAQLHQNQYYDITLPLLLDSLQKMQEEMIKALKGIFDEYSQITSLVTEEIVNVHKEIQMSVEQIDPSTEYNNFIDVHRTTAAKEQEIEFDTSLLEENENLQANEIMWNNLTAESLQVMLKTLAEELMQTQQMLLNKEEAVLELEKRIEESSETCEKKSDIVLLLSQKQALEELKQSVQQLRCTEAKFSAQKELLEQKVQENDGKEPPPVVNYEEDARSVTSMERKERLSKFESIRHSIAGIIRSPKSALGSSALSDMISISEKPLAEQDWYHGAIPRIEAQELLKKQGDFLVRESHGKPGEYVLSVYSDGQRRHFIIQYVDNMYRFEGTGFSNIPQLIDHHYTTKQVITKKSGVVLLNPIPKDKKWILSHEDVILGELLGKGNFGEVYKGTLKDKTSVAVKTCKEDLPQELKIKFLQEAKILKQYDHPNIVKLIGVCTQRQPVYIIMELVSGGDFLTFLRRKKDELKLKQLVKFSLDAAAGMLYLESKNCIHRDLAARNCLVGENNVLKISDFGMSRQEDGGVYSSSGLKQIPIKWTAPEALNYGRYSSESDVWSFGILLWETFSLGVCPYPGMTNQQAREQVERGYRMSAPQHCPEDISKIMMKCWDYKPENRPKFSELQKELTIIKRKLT
Effect on: enzyme activity
Mode: inhibitor
Tested at: 0.5 µM
Baseline: control
SMILES	remaining activity
Fc1ccc(-c2nc3n(c2-c2ccncc2)CCS3)cc1	86.4%
O=C1Cc2c([nH]c3ccc([N+](=O)[O-])cc23)-c2ccccc2N1	75.1%
Nc1ncnc2c1cnn2-c1ccccc1	99%
N#CC(=C(N)Sc1ccc(N)cc1)c1ccccc1C(F)(F)F	105%
CSc1nc(-c2ccnc(N[C@@H](C)c3ccccc3)c2)c(-c2ccc(F)cc2)[nH]1 (racemic)	97.2%
Cc1ccc(NC2=CC(=O)c3sc(C)nc3C2=O)cc1	83.9%
CC[n+]1c(/C=C/N(C)c2ccccc2)n(-c2ccccc2)c2ccc(-c3nc4ccccc4s3)cc21	98.9%
Cc1cncc2cccc(S(=O)(=O)N3CCCN(C(=O)CN)C[C@@H]3C)c12	66%
COc1ccc(S(=O)(=O)N(CCO)c2ccccc2CN(C)CC=Cc2ccc(Cl)cc2)cc1	97.1%
Nc1nc(Nc2ccc(S(N)(=O)=O)cc2)nn1C(=O)c1c(F)cccc1F	82%
CC(C)(C)n1nc(Cc2cccc3ccccc23)c2c(N)ncnc21	76.4%
CC(=O)c1ccc(N2CCOCC2)cc1O	90.4%
NC(=O)c1ccc(N(C(N)=O)c2c(F)cccc2F)nc1-c1ccc(F)cc1F	95.6%
O=S(=O)(NCCNC/C=C/c1ccc(Br)cc1)c1cccc2cnccc12	97.6%
CCc1[nH]c(-c2ccc(OC)cc2)nc1-c1ccncc1	96.4%
Cc1cc(Nc2nc(-c3ccccc3)nc3ccccc23)n[nH]1	31.6%
CCCC(=O)Oc1ccc2[nH]c(C(=O)c3cc4ccccc4[nH]3)cc2c1	101%
CC#CC(=O)Nc1cc2c(Nc3ccc(F)c(Cl)c3)ncnc2cn1	98.2%
O=C1NC(=O)C(c2c[nH]c3ccccc23)=C1c1c[nH]c2ccccc12	83.5%
Oc1ccc(Nc2nc(-c3ccc(Cl)cc3)cs2)cc1	90.3%
Nc1nccc(-c2c(-c3ccc(F)cc3)ncn2C2CCNCC2)n1	98.3%

Set 2
Structure (SMILES): CSc1cccnc1N1CCN(Cc2nc3ccccc3[nH]2)CC1
Technique: competition with immobilised ligand
Tested at: 1 µM
target	test	remaining binding [%]
RAF proto-oncogene serine/threonine-protein kinase (RAF1, Homo sapiens, UniProt P04049)	cell-free assay	91
cGMP-dependent protein kinase 1 (PRKG1, Homo sapiens, UniProt Q13976)	cell-free assay	100
Epidermal growth factor receptor (EGFR, Homo sapiens, UniProt P00533, G719S)	cell-free assay	98
Serine/threonine-protein kinase PLK2 (PLK2, Homo sapiens, UniProt Q9NYY3)	cell-free assay	71
Serine/threonine-protein kinase LATS2 (LATS2, Homo sapiens, UniProt Q9NRM7)	cell-free assay	94
Fibroblast growth factor receptor 4 (FGFR4, Homo sapiens, UniProt P22455)	cell-free assay	89
Serine/threonine-protein kinase ICK (CILK1, Homo sapiens, UniProt Q9UPZ9)	binding	68
Dual specificity protein kinase CLK1 (CLK1, Homo sapiens, UniProt P49759)	cell-free assay	80
Epidermal growth factor receptor (EGFR, Homo sapiens, UniProt P00533, L861Q)	cell-free assay	100
RAC-alpha serine/threonine-protein kinase (AKT1, Homo sapiens, UniProt P31749)	cell-free assay	100
SRSF protein kinase 2 (SRPK2, Homo sapiens, UniProt P78362)	cell-free assay	59
Serine/threonine-protein kinase N1 (PKN1, Homo sapiens, UniProt Q16512)	cell-free assay	100
Mast/stem cell growth factor receptor Kit (KIT, Homo sapiens, UniProt P10721, D816V)	cell-free assay	90
SNF-related serine/threonine-protein kinase (SNRK, Homo sapiens, UniProt Q9NRH2)	cell-free assay	100
Ephrin type-B receptor 1 (EPHB1, Homo sapiens, UniProt P54762)	cell-free assay	99
TRAF2 and NCK-interacting protein kinase (TNIK, Homo sapiens, UniProt Q9UKE5)	cell-free assay	100
Epithelial discoidin domain-containing receptor 1 (DDR1, Homo sapiens, UniProt Q08345)	cell-free assay	100
Mast/stem cell growth factor receptor Kit (KIT, Homo sapiens, UniProt P10721)	cell-free assay	100
Tyrosine-protein kinase ABL1, phosphorylated (ABL1, Homo sapiens, UniProt P00519, Q252H)	cell-free assay	71
Homeodomain-interacting protein kinase 2 (HIPK2, Homo sapiens, UniProt Q9H2X6)	cell-free assay	62
Casein kinase I isoform alpha (CSNK1A1, Homo sapiens, UniProt P48729)	cell-free assay	72
AP2-associated protein kinase 1 (AAK1, Homo sapiens, UniProt Q2M2I8)	cell-free assay	100
Serine/threonine-protein kinase Nek11 (NEK11, Homo sapiens, UniProt Q8NG66)	cell-free assay	79
Serine/threonine-protein kinase DCLK3 (DCLK3, Homo sapiens, UniProt Q9C098)	cell-free assay	100
Mast/stem cell growth factor receptor Kit (KIT, Homo sapiens, UniProt P10721, V559D/V654A)	cell-free assay	100

Set 3
Target: Bromodomain-containing protein 4, BD1 (BRD4, Homo sapiens, UniProt O60885)
Effect on: acetyl-histone H4 peptide binding
Technique: AlphaScreen displacement
Tested at: 50 µM
SMILES	inhibition [%]
O=C(O)COc1ccccc1C=NNC(=O)c1cc(-c2ccc3c4c(cccc24)CC3)n[nH]1	19
COc1ccc(Nc2nccc(-c3ccc(C#N)cc3)n2)cc1	21.4
O=C(NCC1CCCO1)c1n[nH]c2ccccc12 (centres unmarked)	1.45
O=C1NCCCc2c1oc1ccc(O)cc21	12.1
CC(C)Oc1ccc(NC(=O)Nc2ccc(Cl)c(Cl)c2)cc1	9.35
O=C(Nc1ccc(O)c(-c2nc3ccccc3s2)c1)c1ccco1	8.35
Nc1nc(Nc2cccc(C(F)(F)F)c2)sc1C(=O)c1ccccc1	6.6
CCc1sc2nc[nH]c(=O)c2c1-c1ccccc1	11.3
O=c1[nH]cnc2scc(-c3ccc(Cl)cc3)c12	79.7
CC(=O)Nc1cccc(NC(=O)CSc2ccc3nnc(-c4cccc(F)c4)n3n2)c1	18.2
O=C(Nc1ccc(F)cc1)c1n[nH]c2ccccc12	6.65
O=C1NC(=O)C(=Cc2ccc(-c3ccc(Cl)c(Cl)c3)o2)S1	44.6
COc1ccc(-c2nnc3ccc(SCC(=O)O)nn23)cc1OC	9.4
CCN1C(=CC(C)=O)Sc2ccc(OC)cc21	23.9
O=C1NC(=NCc2cccs2)S/C1=C\c1ccc2ncccc2c1	27.1
CC(=O)Nc1ccc(Nc2nc(-c3sc(N)nc3C)cs2)cc1	67
CCCOc1ccc(C=C2SC(=O)N(CCN)C2=O)cc1	22
Nc1nc(NCc2ccc(F)cc2)c2nc[nH]c2n1	26.2
O=C(O)c1cc(N=Nc2ccc(S(=O)(=O)Nc3ccccn3)cc2)ccc1O	16.9
O=C(NCc1ccc(F)cc1)c1n[nH]c2ccccc12	1.25

Set 4
Target: Eukaryotic initiation factor 4A-I (EIF4A1, Homo sapiens, UniProt P60842)
Chain of UniProt P60842 (whole entry, looked up): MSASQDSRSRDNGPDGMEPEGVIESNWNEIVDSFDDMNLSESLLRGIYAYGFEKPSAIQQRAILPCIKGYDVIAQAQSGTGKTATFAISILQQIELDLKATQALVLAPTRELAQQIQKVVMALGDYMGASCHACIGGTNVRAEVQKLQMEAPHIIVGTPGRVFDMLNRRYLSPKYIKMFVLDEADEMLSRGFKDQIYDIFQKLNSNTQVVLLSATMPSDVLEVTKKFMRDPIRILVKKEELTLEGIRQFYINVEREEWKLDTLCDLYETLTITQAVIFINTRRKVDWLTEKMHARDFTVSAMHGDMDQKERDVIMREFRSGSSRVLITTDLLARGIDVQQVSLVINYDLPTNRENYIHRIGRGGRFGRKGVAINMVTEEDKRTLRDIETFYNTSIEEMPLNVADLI
Effect on: RNA clamping
Technique: fluorescence polarization
Tested at: concentration not given
Setting: mean of two replicates
With: FAM-labelled poly r(AG)8 RNA
Structure (SMILES)	fluorescence polarization change [mP]
COc1ccc([C@@]23Oc4cc(OC)cc(OC)c4[C@]2(O)[C@@H]2OC(=O)[C@@H]2[C@H]3c2ccccc2)cc1	49.6
C#CCCC1(CCOc2cc(OC)c3c(c2)O[C@@]2(c4ccc(OC)cc4)[C@H](c4ccccc4)[C@@H](C(=O)c4ccco4)[C@@H](O)[C@@]32O)N=N1	1.8
COc1ccc([C@@]23Oc4cc(OC)cc(OC)c4[C@]2(O)c2nc(-c4ccccc4)nc(OC)c2[C@H]3c2ccccc2)cc1	-0.6
C#CCOc1cc(OC)c2c(c1)O[C@@]1(c3ccc(OC)cc3)[C@H](c3ccccc3)c3c(nc(-c4ccccc4)[nH]c3=O)[C@@]21O	3.5
COc1ccc([C@]23Oc4cc(OC)cc(OC)c4[C@@]2(O)c2nc(-c4cccc(OC)c4)[nH]c(=O)c2[C@@H]3c2ccccc2)cc1	17.8
COc1ccc([C@]23Oc4cc(OC)cc(OC)c4[C@](O)([C@H](C(=O)NCCCC(OC)OC)[C@H]2c2ccccc2)[C@H]3O)cc1	1.4
COc1ccc([C@@]23Oc4cc(OC)cc(OC)c4[C@]2(O)[C@@H](O)[C@H](C(=O)c2ccco2)[C@H]3c2ccccc2)cc1	27.4
CCCC1=N[C@@]2(O)[C@H](C(=O)OC)[C@@H](c3ccccc3)[C@]3(c4ccc(OC)cc4)Oc4cc(OC)cc(OC)c4[C@]23N1	66
COC(=O)C1=C(c2ccccc2)[C@]2(c3ccc(OC)cc3)Oc3cc(OC)cc(OC)c3[C@]2(O)C1=O	19
COC(=O)[C@H]1C(=O)[C@@]2(NC(C)C)c3c(OC)cc(OC)cc3O[C@@]2(c2ccc(OC)cc2)[C@@H]1c1ccccc1	6.3
COC(=O)[C@@H]1[C@@H](c2ccccc2)[C@]2(c3ccc(OC)cc3)Oc3cc(OC)cc(OC)c3[C@@]23NC(C2CCN(C(=O)OC(C)(C)C)CC2)=N[C@@]13O	39
COCCN[C@@]12C(=O)C[C@@H](c3ccccc3)[C@]1(c1ccc(OC)cc1)Oc1cc(OC)cc(OC)c12	-5.6
COc1ccc([C@@]23Oc4cc(OC)cc(OC)c4[C@]2(O)[C@H](O)[C@H](C(=O)NCCCC(OC)OC)[C@H]3c2ccccc2)cc1	61.5
COc1ccc([C@]23Oc4cc(OC)cc(OC)c4[C@@]2(O)c2nc(-c4ccc(C)cc4)[nH]c(=O)c2[C@@H]3c2ccccc2)cc1	34

Repeated from above (set 2):
target	test	remaining binding [%]
Mast/stem cell growth factor receptor Kit (KIT, Homo sapiens, UniProt P10721)	cell-free assay	100
RAC-alpha serine/threonine-protein kinase (AKT1, Homo sapiens, UniProt P31749)	cell-free assay	100
Homeodomain-interacting protein kinase 2 (HIPK2, Homo sapiens, UniProt Q9H2X6)	cell-free assay	62
Dual specificity protein kinase CLK1 (CLK1, Homo sapiens, UniProt P49759)	cell-free assay	80
Serine/threonine-protein kinase Nek11 (NEK11, Homo sapiens, UniProt Q8NG66)	cell-free assay	79
Epidermal growth factor receptor (EGFR, Homo sapiens, UniProt P00533, G719S)	cell-free assay	98
AP2-associated protein kinase 1 (AAK1, Homo sapiens, UniProt Q2M2I8)	cell-free assay	100
Fibroblast growth factor receptor 4 (FGFR4, Homo sapiens, UniProt P22455)	cell-free assay	89
Serine/threonine-protein kinase N1 (PKN1, Homo sapiens, UniProt Q16512)	cell-free assay	100
Casein kinase I isoform alpha (CSNK1A1, Homo sapiens, UniProt P48729)	cell-free assay	72
RAF proto-oncogene serine/threonine-protein kinase (RAF1, Homo sapiens, UniProt P04049)	cell-free assay	91
Epithelial discoidin domain-containing receptor 1 (DDR1, Homo sapiens, UniProt Q08345)	cell-free assay	100
